Results gathered from unrelated publications.
A part holds a random share of what one study measured. Positions count from the first letter of the parent shown.

Study 1 — method: RNA Bind-n-Seq; form: RNA; matrix: in vitro; concentration: not given; reference: input RNA pool; reading: higher = stronger binding; quantity: bound/input enrichment
Target: RING finger protein unkempt homolog, zinc fingers 1-6, GST-SBP tag (UNK, Homo sapiens, UniProt Q9C0B0, residues 30-357)
UniProt Q9C0B0, sequence (30-357, looked up): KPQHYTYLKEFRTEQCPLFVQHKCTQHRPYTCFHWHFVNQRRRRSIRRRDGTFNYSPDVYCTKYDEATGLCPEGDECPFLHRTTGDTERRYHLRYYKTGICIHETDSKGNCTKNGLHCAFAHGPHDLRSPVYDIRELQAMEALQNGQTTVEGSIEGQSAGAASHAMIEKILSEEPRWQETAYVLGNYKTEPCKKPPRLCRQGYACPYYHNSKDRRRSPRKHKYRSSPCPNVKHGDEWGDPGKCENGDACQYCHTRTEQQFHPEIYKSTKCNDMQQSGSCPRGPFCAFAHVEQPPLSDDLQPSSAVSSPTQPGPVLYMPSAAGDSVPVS
Setting: RNA with constant flanks, human and mouse sites, ends assumed
Constant ends, left off below: GGGAGUUCUACAGUCCGACGAUC … CAACAGAGGAUUGAGCAUCA
GUACGUCAUUCAAGUGUUUAAUGGUAAAGGUGUAUUAUAAGGAUAGUGCUAGAAGCUUUCAUAGACUGUAAAGAGUUCCAUGGAGUAUUAAACCCAUAGUUGGAAAGGUCUGAGGGCCCA: 0.445 ratio
GAGAGCAAUUUUAACCUUACUCAUUAUGGAACUCAGCAAAUCCCUCCUGCUUACAAAGAUUUAGCUGAGCCAUGGAUUCAGGUGUUUGGAAUGGAACUCGUUGGCUGCUUAUUUUCUAGA: 0.207 ratio
GAUAUUCUAAGAUCACAGUGGUCUCCUGCUUUAACUAUUUCUAAAGUUCUUUUAUCCAUUUGUUCACUGCUAUGUGAUCCAAACCCAGACGACCCCCUAGUGCCAGAGAUUGCACGGAUC: 1.33 ratio
ACUGGAAUGUCAAACUCCUCAAAGUUGACCAGGAUAGCGCUUUGCACAAUGAUCUUCAGAUCCUGAAGGAGAAGGAAGGAGCAGACUUCAUCCUACUUAACUUCUCCUUUAAAGAUAACU: 0.118 ratio
GGUGCAUUUCCUGAUGCCCAGCUUCCUUCUAAGAGGAUCAUUGGCCCCAAAAAUUAUGAAUUCUUAAAGUCAAAGAGGGAAGAGUUCCAAGAAUAUCUACAGAAACUUCUGCAGCAUCCA: 0.194 ratio
CCCUCCAGAGCUCUCUUGAGUGCUGAGGCUUCGGUCUGACUUGCAGCCGCUGCAGAGAUAACGCCUGAGUCCUGAAUUGCUUUACCUAUUGCAAGUUAAAAGUCUACAGUUCAAACAAAA: 0.178 ratio
AUAUAUAUUCACUUGCAUUCAUGCAGAACACAAGCUUUGCUGUACAAAAUGUUGUGUUUCUUAGUGAUUUUAAAAGGCAUGCUUUGCAUGCAAAGGAAAACCAUUGCAGUUAGUCUUUUC: 0.846 ratio
GAGCACAGCAAGACCCCUGAGGAGAGGAGCCUUCCUUCCGACCUGGCCUUCAACGGGGACCUGGCUAAGGCAGCCAGCUCGGAGCUACCUGCUGAUAUUUCCAAGCCCUGGAUUCCCUCA: 0.125 ratio

Study 2 — method: DHFR PCA, deep sequencing; matrix: yeast; added: (+)-ABA 58 µM; reference: wild-type fitted maximum; reading: higher = stronger binding; quantity: relative binding score
Target: ABI1, truncated, D143A, DHFR fusion (Arabidopsis thaliana)
Setting: methotrexate growth selection, single substitutions
Starting sequence: PYL1, truncated, DHFR fusion (Arabidopsis thaliana); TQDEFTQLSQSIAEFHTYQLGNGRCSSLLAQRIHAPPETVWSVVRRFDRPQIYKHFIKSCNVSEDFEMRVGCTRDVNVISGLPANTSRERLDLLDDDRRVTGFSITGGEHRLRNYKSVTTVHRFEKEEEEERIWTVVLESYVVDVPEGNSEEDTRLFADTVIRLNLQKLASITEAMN; partner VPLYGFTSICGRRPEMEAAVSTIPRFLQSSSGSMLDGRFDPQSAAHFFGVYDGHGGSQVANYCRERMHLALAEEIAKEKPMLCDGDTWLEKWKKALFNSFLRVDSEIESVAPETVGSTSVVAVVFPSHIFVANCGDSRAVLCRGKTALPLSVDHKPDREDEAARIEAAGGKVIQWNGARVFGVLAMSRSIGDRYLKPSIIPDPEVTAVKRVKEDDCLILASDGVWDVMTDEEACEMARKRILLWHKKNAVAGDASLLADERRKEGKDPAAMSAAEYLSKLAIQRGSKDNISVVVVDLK
Q167R: 90.4%
E14Q: 79.3%
T106K: 57.6%
E130M: 91%
P36Q: 70.6%
R45M: -5.65%
L94G: -2.52%
C72H: 65.5%
F157P: -1.49%
N165C: -1.16%
N177D: 102%
F5N: 72.1%
D75S: 86.5%
I172A: 59.8%
A84M: 24.2%
K116F: 15.3%
N77E: 93.6%
R111I: 14.9%

Study 3 — method: protein binding microarray; form: double-stranded DNA, one strand shown; matrix: in vitro; concentration: not given; reference: not given; reading: higher = stronger binding; quantity: E-score
Target: Histone acetyltransferase KAT6A, winged helix 1, GST fusion (KAT6A, Homo sapiens, UniProt Q92794, residues 1-85)
Setting: 8-mer, flanks averaged, mean of 2 arrays, mostly near background
Construct (chain): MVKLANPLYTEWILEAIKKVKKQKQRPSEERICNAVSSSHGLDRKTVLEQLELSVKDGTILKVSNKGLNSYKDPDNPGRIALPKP
AAAATTTT: -0.243
GCAGGAAA: -0.13
TCATCAAA: -0.0496
AATTTGTC: -0.189
CAACCGCA: 0.104
ACACCAAA: -0.0953
CTGCCAGC: -0.13
AGCGAACC: 0.0972
ATACTAAG: -0.103
TAGAACGA: -0.102
CGAAATAA: -0.0169
AAGTAGGC: -0.146
ACGTATTC: -0.0104
CACAAGCC: -0.00806
AGGTTACT: 0.0712
CACATTAA: -0.245
TGCACCCA: -0.153
CACGTAAA: -0.168
GATAGGGA: -0.167
AGACCTCC: -0.115
AACCTTCG: -0.0522
GTACTTAA: -0.0839
AGAGGCGA: -0.0793
TAAAAACA: -0.0269
ATCCCGAC: 0.215

Study 4 — target: CCNE2, cyclin fold, Cln2 fusion (human); method: yeast growth competition, sequencing; matrix: yeast; setting: weak parent motif; reference: not given; reading: higher = stronger binding; quantity: normalised enrichment score
Starting sequence: MICAL3 docking peptide (human); LQLRRQLSFSEDS; partner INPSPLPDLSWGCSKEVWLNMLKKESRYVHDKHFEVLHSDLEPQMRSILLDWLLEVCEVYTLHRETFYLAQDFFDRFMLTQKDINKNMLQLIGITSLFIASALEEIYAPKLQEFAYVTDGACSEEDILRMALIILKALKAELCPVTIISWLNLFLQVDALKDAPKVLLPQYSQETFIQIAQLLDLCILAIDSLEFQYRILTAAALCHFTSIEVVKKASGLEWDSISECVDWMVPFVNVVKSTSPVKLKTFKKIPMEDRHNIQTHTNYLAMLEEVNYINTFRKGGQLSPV
LQLRRQLSFEEDS [S10E]: 0.377
LSLRRQLSFSEDS [Q2S]: 0.321
LQLRRQLSYSEDS [F9Y]: 0.071
LQLRRQLNFSEDS [S8N]: 0.501
LWLRRQLSFSEDS [Q2W]: 0.153
LQLTRQLSFSEDS [R4T]: -0.0387
LQARRQLSFSEDS [L3A]: 2.11
LQLGRQLSFSEDS [R4G]: 0.174
LQLRRQLSFSEHS [D12H]: 0.384
LQMRRQLSFSEDS [L3M]: 0.458
LQLRRQLSFSIDS [E11I]: 0.0132
LQLRRQFSFSEDS [L7F]: -0.18
LGLRRQLSFSEDS [Q2G]: 0.0151
LQRRRQLSFSEDS [L3R]: 0.29
LQLRRKLSFSEDS [Q6K]: 0.422
LQLRRSLSFSEDS [Q6S]: -0.181

Excerpt of the above (study 2):
F157P: -1.49%
R45M: -5.65%
D75S: 86.5%
P36Q: 70.6%
T106K: 57.6%
